Results of several laboratories.
A part holds a random share of what one study measured. Substitutions count along the parent as printed.

Sample 1
Target: RNA binding protein fox-1 homolog 2, RRM domain, GST-SBP tag (RBFOX2, Homo sapiens, UniProt O43251-10, residues 100-194)
Method: RNA Bind-n-Seq
Form: RNA
Matrix: in vitro
Concentration: 365 nM
Setting: natural RNA segment, single round, ends assumed
Relative to: no-protein control
Reading: higher = stronger binding
Measurement: RBNS enrichment (R)
Target sequence (chain): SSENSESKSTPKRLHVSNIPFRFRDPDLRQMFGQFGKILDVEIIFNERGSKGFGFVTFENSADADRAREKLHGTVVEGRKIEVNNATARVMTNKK
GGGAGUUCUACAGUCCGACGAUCCACCCACCAACAGGAAGGCCUGGUGAAGGUUCAGGAAGUCUGGAGAGUCUCCCCAGACCAAGGUCAGAAAGGAUGCCCAGAGGUUCCAAGAACAGAGCAACAGCAACGGAUGGAAUUCUCGGGUGCCAA: 0.252
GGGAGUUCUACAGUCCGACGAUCCCUUGCUUGUCGGACCAAGGCAGCGAUGGUUGUGAUGAUGAUGGCUUGGUGAUAUCUGGGUAUGGCUCAGGGGAAACCUUUGACUCUAACCUGCCCCCUACUGAUGAUGAUGGAAUUCUCGGGUGCCAA: 0.576
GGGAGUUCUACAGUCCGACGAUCUUCUACUUUGUAUCCAUGACUUCUCCGAAUCAAACCACGGUAUAUGUUGUGACAAUAUCUAUGGCCACUGUUAGCCCAUUAUGUUCAUUCCAAUUAGAAGAAAUGUGAAUUGGAAUUCUCGGGUGCCAA: 0.873
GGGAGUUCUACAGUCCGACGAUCAAAGGAGGUGAGAGUUUAGUCCCUUCUGCAGUUUUCUCCAAGCUGUGUCCUGUGAAUUUCAACCCUUGGAGCCUAAGAAAACCCUAGGAAGAUGAUGUUAAUUUGCUGUCUGGAAUUCUCGGGUGCCAA: 0.393
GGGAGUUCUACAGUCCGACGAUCCCAAGAACUAUAUUUCUUUCAUGAACUCAGCCCUGGAAGUUGCUUUUUUCUGCCAAAAGGAGCCUACAUUUAUAAUGCACUUAUUGAAUUCAUUAGGGGCGAAUAUAGGAUGGAAUUCUCGGGUGCCAA: 0.618
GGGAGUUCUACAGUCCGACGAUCAGUAUUUACACUGGUUUGAUGUUUACAUUGCUCUAACUCGGUGCCUCAGAUACCUCUGUGACCAAAUUUGUCUCCAACCACAUAGCUCAUUUCCUAUAAUGUUAUAUCAUUGGAAUUCUCGGGUGCCAA: 0.283
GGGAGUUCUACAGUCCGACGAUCUAAUUUUGAGGCAUAGGGUAGCUUACGUAGUGGAGGAUGUGCCAAAUAUUCUCUUCAAAUGCCACCUUCUCAAUUUAUAACUAAAAUAGUGUUAUCUGACUAAUUCCUCUUGGAAUUCUCGGGUGCCAA: 0.199
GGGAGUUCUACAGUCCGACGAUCUGAGAGGUGGCAGAGCUGCGCUCCUGCCCACAGUGCUAGCCCAGGAAUCCUGGGGAGGCUGAGUAGACAUGAGUAAGAACAGGGCGCCGCCCCGCCCCUUCCUCCCCCACUGGAAUUCUCGGGUGCCAA: 0.538

Sample 2
Target: Ras GTPase-activating protein-binding protein 1, RRM domain (G3BP1, Homo sapiens, UniProt Q13283)
Chain of UniProt Q13283 (whole entry, looked up): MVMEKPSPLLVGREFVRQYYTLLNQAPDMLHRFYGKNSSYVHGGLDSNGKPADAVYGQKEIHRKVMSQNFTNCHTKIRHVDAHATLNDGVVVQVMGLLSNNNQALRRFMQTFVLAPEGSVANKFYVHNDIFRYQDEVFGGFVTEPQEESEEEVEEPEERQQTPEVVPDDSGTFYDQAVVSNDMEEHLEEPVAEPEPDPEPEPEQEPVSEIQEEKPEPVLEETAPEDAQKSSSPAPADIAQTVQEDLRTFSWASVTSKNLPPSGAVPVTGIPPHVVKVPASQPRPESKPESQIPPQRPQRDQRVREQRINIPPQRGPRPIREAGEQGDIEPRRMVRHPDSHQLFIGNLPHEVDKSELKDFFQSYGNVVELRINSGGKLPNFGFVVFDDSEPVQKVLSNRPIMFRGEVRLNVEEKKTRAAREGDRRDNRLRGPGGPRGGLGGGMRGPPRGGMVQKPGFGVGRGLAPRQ
Method: RNA Bind-n-Seq
Form: RNA
Matrix: in vitro
Concentration: 1 µM
Setting: whole 134-nt RNA, ends assumed
With: 150 mM KCl
Relative to: input library
Reading: higher = stronger binding
Measurement: log2 enrichment
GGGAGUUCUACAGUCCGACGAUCCCUGCUUUUGGGGGUGACCGCCGGAGCGCGGCGUGAGCCCUCCCCCUUGGGAUCCCGCAGCUGACCAGUCGCGCUGACGGACAGACAGACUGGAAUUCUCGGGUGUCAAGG: -0.612
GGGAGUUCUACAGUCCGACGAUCAAGUCCUGUGCUACACAUCGUAUGUACCGAAUCGGGGUUUUUGGGGUGGGGAGGGGAAAGUAUUAUGUUACGCCGUUCGGAUCUGCACUUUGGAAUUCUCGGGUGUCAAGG: 0.788
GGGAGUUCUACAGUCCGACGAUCCUGUGCUACACAUCGUAUGUACCGAAUCGGCCCCCCCGGGGCCCCCCCGGGGCCCCCCCGGAAAGUAUUAUGUUACGCCGUUCGGAUCUGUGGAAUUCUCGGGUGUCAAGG: -0.519
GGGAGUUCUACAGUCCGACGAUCCUCAAGUCCUGUGCUACACAUCGUAUGUACCGAAUCGGGGCCGGCCGGCCGGGAAAGUAUUAUGUUACGCCGUUCGGAUCUGCACUUCCAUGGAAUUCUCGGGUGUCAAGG: -0.509
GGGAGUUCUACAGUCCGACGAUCAGUCCUGUGCUACACAUCGUAUGUACCGAAUCGGUUUUUGGAAAAAAAGGAAAAAGGAAAGUAUUAUGUUACGCCGUUCGGAUCUGCACUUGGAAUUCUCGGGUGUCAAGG: -0.297
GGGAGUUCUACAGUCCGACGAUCCCUGUGCUACACAUCGUAUGUACCGAAUCGGGGAAAAAAGGGAAAAAAGGGAAAAAAGGGAAAGUAUUAUGUUACGCCGUUCGGAUCUGCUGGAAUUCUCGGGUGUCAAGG: 0.00342
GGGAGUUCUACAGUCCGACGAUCCACAGACAACACGCACCCACACAGACACAGAGGGAAGGGGUUGGGAUGGGGACAGGGUGCACAGCAGGGCGGGGAAAGACCCCAGCCCCUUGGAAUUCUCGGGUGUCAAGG: -0.0394
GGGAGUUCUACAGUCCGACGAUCAAGUCCUGUGCUACACAUCGUAUGUACCGAAUCGGGCCCCGGCCCCGGCCCCGGGGAAAGUAUUAUGUUACGCCGUUCGGAUCUGCACUUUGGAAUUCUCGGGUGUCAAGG: -1.25
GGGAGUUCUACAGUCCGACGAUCGCAGGAAGUAAAAACAAAUGGAAAUGCUUCGGAUAGUGGCAGGGGUGGGGGUUGCUAAGGAAAGGGUGGGAUGGGAGUGGGUAAUGAGUUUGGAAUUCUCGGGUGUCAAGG: 0.983

Sample 3
Target: CCNF, cyclin fold, Cln2 fusion (human)
Method: yeast growth competition, sequencing
Matrix: yeast
Setting: strong parent motif
Relative to: not given
Reading: higher = stronger binding
Measurement: normalised enrichment score
Starting sequence: ORC1 docking peptide (human); PRARKRLELGNLG; partner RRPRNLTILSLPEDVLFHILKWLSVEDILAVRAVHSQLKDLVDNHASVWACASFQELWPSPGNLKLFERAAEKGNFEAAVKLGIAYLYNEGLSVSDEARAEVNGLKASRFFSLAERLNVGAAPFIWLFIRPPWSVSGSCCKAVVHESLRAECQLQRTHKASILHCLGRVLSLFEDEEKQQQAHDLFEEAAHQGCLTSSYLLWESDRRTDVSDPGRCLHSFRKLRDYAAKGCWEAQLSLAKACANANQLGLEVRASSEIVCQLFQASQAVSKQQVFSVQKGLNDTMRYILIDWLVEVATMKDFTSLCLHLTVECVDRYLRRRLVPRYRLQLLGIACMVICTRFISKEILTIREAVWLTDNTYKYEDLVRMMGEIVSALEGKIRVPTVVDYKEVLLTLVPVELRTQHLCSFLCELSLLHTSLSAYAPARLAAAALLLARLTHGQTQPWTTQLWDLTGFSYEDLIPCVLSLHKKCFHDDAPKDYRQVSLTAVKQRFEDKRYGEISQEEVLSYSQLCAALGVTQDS
PRARKDLELGNLG [R6D]: 0.599
PRARKRLELGNPG [L12P]: 4.1
PRARKRLNLGNLG [E8N]: 2.97
PRARKRYELGNLG [L7Y]: 0.762
PLARKRLELGNLG [R2L]: 1.97
PRERKRLELGNLG [A3E]: 1.85
PRARKLLELGNLG [R6L]: 1.95
PGARKRLELGNLG [R2G]: 3.36
PRARKRLELDNLG [G10D]: 5.47
PRARKRLDLGNLG [E8D]: 3.73
PRARKRLELGNLF [G13F]: 3.24
PRARKRLELGNEG [L12E]: 3.77
LRARKRLELGNLG [P1L]: 2.74
PRARKRLEHGNLG [L9H]: 1.52
PRSRKRLELGNLG [A3S]: 1.47
PHARKRLELGNLG [R2H]: 3.67

Sample 4
Substance: PhoQ, residues 284 288 289 292 302 303 ASVMEA
Method: Sort-seq
Refers to: YFP reporter
Matrix: E. coli
Setting: PhoQ-PhoP variant library
With: 10 µM Mg2+
Relative to: high Mg2+ state
Reading: higher = stronger signaling
Measurement: fold induction
PhoP, residues 12 14 15 18 19 HHYTI (Escherichia coli, UniProt P23836): 2.28
PhoP, residues 12 14 15 18 19 SFCSL (Escherichia coli, UniProt P23836): 17.5
PhoP, residues 12 14 15 18 19 AYFRS (Escherichia coli, UniProt P23836): 12.8
